# Experimental data collected from several papers.
# Each line is one published result; not all experiments were run side by side. Numbers after ± are the reported error.
# KCNH2: Voltage-gated inwardly rectifying potassium channel KCNH2 (KCNH2, Homo sapiens, UniProt Q12809)
# UniProt Q12809, sequence (whole entry, looked up): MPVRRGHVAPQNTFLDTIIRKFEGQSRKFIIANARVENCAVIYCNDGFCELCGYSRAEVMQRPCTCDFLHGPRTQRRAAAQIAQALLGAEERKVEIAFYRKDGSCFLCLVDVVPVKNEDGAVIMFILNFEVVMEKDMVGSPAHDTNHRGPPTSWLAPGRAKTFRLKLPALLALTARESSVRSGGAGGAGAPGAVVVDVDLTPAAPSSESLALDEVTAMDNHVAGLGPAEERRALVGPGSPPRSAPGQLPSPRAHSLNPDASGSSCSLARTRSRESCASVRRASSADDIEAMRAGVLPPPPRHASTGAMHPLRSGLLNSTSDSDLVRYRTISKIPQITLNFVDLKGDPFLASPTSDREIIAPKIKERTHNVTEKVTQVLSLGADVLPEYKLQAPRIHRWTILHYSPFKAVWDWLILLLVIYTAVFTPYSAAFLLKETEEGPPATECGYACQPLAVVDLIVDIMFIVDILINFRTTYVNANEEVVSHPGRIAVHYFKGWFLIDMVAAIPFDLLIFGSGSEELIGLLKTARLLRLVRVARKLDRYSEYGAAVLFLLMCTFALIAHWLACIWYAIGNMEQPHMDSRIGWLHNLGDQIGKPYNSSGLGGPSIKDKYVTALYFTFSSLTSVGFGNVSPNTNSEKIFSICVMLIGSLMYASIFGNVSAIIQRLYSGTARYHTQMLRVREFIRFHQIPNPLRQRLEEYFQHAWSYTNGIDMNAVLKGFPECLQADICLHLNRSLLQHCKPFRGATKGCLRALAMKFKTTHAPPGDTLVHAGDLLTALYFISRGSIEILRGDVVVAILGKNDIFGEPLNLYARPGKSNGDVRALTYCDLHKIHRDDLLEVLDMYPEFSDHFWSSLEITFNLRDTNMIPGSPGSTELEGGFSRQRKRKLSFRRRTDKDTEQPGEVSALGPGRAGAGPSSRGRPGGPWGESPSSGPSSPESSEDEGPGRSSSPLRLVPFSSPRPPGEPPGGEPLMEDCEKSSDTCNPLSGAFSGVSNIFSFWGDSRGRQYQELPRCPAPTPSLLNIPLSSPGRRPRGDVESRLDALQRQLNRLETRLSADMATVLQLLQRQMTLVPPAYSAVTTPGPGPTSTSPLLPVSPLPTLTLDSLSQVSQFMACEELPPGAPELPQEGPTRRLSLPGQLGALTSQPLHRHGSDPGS
# CYP2B6: Cytochrome P450 2B6 (CYP2B6, Homo sapiens, UniProt P20813)
# UniProt P20813, sequence (whole entry, looked up): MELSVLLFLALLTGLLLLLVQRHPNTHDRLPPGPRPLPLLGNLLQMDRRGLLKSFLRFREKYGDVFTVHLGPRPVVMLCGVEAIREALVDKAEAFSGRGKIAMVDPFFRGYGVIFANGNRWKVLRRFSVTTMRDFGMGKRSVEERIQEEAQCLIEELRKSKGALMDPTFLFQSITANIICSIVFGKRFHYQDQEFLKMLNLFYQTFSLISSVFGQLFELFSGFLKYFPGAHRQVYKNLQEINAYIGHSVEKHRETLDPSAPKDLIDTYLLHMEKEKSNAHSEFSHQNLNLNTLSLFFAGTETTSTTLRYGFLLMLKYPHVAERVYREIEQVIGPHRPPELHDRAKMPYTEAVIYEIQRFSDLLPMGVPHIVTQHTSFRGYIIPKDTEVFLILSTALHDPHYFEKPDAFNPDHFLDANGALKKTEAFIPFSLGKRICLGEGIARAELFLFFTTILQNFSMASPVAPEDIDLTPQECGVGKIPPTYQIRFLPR
# UniProt P06133, sequence (whole entry, looked up): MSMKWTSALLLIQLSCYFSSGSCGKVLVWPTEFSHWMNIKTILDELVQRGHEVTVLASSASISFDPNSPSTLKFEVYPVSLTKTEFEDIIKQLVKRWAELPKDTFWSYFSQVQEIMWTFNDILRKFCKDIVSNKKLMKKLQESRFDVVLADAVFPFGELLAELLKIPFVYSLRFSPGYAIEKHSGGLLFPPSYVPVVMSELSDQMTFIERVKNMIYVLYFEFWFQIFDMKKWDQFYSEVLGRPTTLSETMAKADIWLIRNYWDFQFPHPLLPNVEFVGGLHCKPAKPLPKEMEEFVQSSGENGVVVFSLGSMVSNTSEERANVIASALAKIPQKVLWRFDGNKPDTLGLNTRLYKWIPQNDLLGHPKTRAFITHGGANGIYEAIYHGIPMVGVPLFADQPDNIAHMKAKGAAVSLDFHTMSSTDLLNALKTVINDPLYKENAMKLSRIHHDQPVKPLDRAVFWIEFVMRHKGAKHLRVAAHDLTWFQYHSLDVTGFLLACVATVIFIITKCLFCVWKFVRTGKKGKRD
SMILES,target,assay,system,conditions,scale,endpoint,value
"CCOC(=O)C1C(OC(c2ccc(Cl)cc2)c2ccc(Cl)cc2)CC2CCC1N2C (single isomer, unassigned)",KCNH2,"ligand displacement, radioligand",,,,Ki,287 nM
CCCCCc1cc(O)c2c(c1)OC(C)(C)C1CCC(CO)=CC21 (stereo not drawn),CYP2B6,"enzyme activity, inhibitor",microsomes of overexpressing HEK293 cells,"concentration not given, pH 7.4, with: efavirenz",,inhibition,inhibited
CC[C@H](C)[C@H](NC(=O)[C@H](CC(=O)O)NC(=O)[C@@H](NC(=O)[C@@H]1CCCN1C(=O)[C@@H](N)CCCNC(=N)N)[C@@H](C)O)C(=O)N[C@@H](CCCCN)C(=O)N[C@H]1CSSC[C@@H]2NC(=O)[C@H](CCCCNC(=O)CCc3cn(CCOCCOCCOCCOCCOCCNC(=O)CCCCC[N+]4=C(/C=C/C=C/C=C5/N(C)c6ccccc6C5(C)C)C(C)(C)c5ccccc54)nn3)NC(=O)CNC(=O)[C@H](CC(N)=O)NC(=O)[C@H]([C@@H](C)O)NC(=O)[C@H](CCCCN)NC(=O)CNC(=O)[C@H](Cc3ccccc3)NC(=O)[C@H](CCCNC(=N)N)NC(=O)[C@H](CO)NC(=O)[C@H](CCCCN)NC(=O)[C@@H]3CSSC[C@@H](C(=O)N[C@@H](Cc4ccccc4)C(=O)O)NC(=O)[C@H](CC(=O)O)NC(=O)[C@H](CSSC[C@H](NC(=O)[C@H](CCC(N)=O)NC(=O)[C@H](Cc4ccc(O)cc4)NC(=O)[C@H](CO)NC(=O)[C@H](CCC(=O)O)NC(=O)[C@H](CO)NC1=O)C(=O)N[C@@H](Cc1ccccc1)C(=O)N1CCC[C@H]1C(=O)N[C@@H](C(C)C)C(=O)N3)NC(=O)[C@H](Cc1ccccc1)NC(=O)CNC(=O)[C@H](CC(N)=O)NC(=O)[C@H](C(C)C)NC2=O,KCNH2,"ion current, two-electrode voltage clamp",Xenopus laevis oocytes,,,Hill coefficient,0.7 ± 0.1
"CCCCCc1cc(O)c2c(c1)OC(C)(C)C1CCC(C)=CC21 (single isomer, unassigned; (-))","UGT2B4 (Homo sapiens, UniProt P06133)","codeine glucuronidation, inhibitor",HEK293 microsomes,with: codeine,relative to: UGT2B4 over UGT2B7,IC50 ratio,~3.6 fold
CC[C@H](C)[C@H](NC(=O)[C@H](CC(=O)O)NC(=O)[C@@H](NC(=O)[C@@H]1CCCN1C(=O)[C@@H](N)CCCNC(=N)N)[C@@H](C)O)C(=O)N[C@@H](CCCCN)C(=O)N[C@H]1CSSC[C@@H]2NC(=O)[C@H](CCCNC(=N)N)NC(=O)CNC(=O)[C@H](CC(N)=O)NC(=O)[C@H]([C@@H](C)O)NC(=O)[C@H](CCCCN)NC(=O)CNC(=O)[C@H](Cc3ccccc3)NC(=O)[C@H](CCCNC(=N)N)NC(=O)[C@H](CO)NC(=O)[C@H](CCCCN)NC(=O)[C@@H]3CSSC[C@@H](C(=O)N[C@@H](Cc4ccccc4)C(=O)O)NC(=O)[C@H](CC(=O)O)NC(=O)[C@H](CSSC[C@H](NC(=O)[C@H](CCC(N)=O)NC(=O)[C@H](Cc4ccc(O)cc4)NC(=O)[C@H](CO)NC(=O)[C@H](CCC(=O)O)NC(=O)[C@H](CO)NC1=O)C(=O)N[C@@H](Cc1ccccc1)C(=O)N1CCC[C@H]1C(=O)N[C@@H](C(C)C)C(=O)N3)NC(=O)[C@H](Cc1ccccc1)NC(=O)CNC(=O)[C@H](CC(N)=O)NC(=O)[C@H](C(C)C)NC2=O,KCNH2,"ion current, inhibitor, two-electrode voltage clamp",,"pH 7.4, oocytes",,IC50,12.2 nM
CN(C)CC1CCCCC1(O)c1cccc(O)c1 (stereo not drawn),P-glycoprotein,,Caco-2 TC7,"10 µM, 3 h, pH 6.8 apical, 7.4 basolateral, with: cyclosporin A 10 µM",,Papp B to A,15.1 ± 0.5 ×10⁻⁶ cm/s
"CCCCCc1cc(O)c2c(c1)OC(C)(C)C1CCC(C)=CC21 (single isomer, unassigned; (-))",CYP2B6,inhibitor,"HEK293 overexpressing CYP2B6, recombinant microsomes","concentration not given, with: efavirenz",,inhibition,inhibited
CC[C@H](C)[C@H](NC(=O)[C@H](CC(=O)O)NC(=O)[C@@H](NC(=O)[C@@H]1CCCN1C(=O)[C@H](CCCNC(=N)N)NC(=O)CCCCCCCCc1cn(CCOCCOCCOCCOCCOCCNC(=O)CCCCC[N+]2=C(/C=C/C=C/C=C3/N(C)c4ccccc4C3(C)C)C(C)(C)c3ccccc32)nn1)[C@@H](C)O)C(=O)N[C@@H](CCCCN)C(=O)N[C@H]1CSSC[C@@H]2NC(=O)[C@H](CCCNC(=N)N)NC(=O)CNC(=O)[C@H](CC(N)=O)NC(=O)[C@H]([C@@H](C)O)NC(=O)[C@H](CCCCN)NC(=O)CNC(=O)[C@H](Cc3ccccc3)NC(=O)[C@H](CCCNC(=N)N)NC(=O)[C@H](CO)NC(=O)[C@H](CCCCN)NC(=O)[C@@H]3CSSC[C@@H](C(=O)N[C@@H](Cc4ccccc4)C(=O)O)NC(=O)[C@H](CC(=O)O)NC(=O)[C@H](CSSC[C@H](NC(=O)[C@H](CCC(N)=O)NC(=O)[C@H](Cc4ccc(O)cc4)NC(=O)[C@H](CO)NC(=O)[C@H](CCC(=O)O)NC(=O)[C@H](CO)NC1=O)C(=O)N[C@@H](Cc1ccccc1)C(=O)N1CCC[C@H]1C(=O)N[C@@H](C(C)C)C(=O)N3)NC(=O)[C@H](Cc1ccccc1)NC(=O)CNC(=O)[C@H](CC(N)=O)NC(=O)[C@H](C(C)C)NC2=O,KCNH2,"ion current, two-electrode voltage clamp",Xenopus laevis oocytes,,,Hill coefficient,0.8 ± 0.1
CCC1CN2CCC3(O)C(=Nc4cccc(OC)c43)C2CC1C(=COC)C(=O)OC (stereo not drawn),"UDP-glucuronosyltransferase, rat","4-MU glucuronidation, inhibitor",rat liver microsomes,"100 µM, 30 min, pH 7.4, with: 4-methylumbelliferone 100 µM",,inhibition,46%
